# Results pooled from the literature.
# Protocols differ between the studies behind these lines.
# Technique: steady-state kinetics
# B1: enzyme N158A (Sinorhizobium meliloti, UniProt Q92UV7); chain MTNAEVTIAVRHEPMRIAGRLVDTDDRVEVRYPWNDTVVGTVPAGRAEHAREAFAIAAAYQPKLTRYERQKILLATAEALAARKEEISDVITLELGISKADSLYEVGRAFDVFTLAGQMCIRDDGEIFSCDLTPHGKARKIFTMREPLTAISAITPFAHPLNMVAHKVAPAIATNNCVVVKPTELTPMTALLLADILYEAGLPPEMLSVVTGWPADIGMEMITNPHVDLVTFTGSVPVGKLIAANAHYKRQVLELGGNDPLIILNDLSDDDLARAADLAVAGATKNSGQRCTAVKRILCQESVADRFVPLVLERAKRLRFGDPMDRSTDLGTVIHEKAAALFEERVMRAAEEGADILYHPGRSGALLPPIVVDRVPHQSDLVLEETFGPIIPIVRVPDDDDATITLSNSTAFGLSSGVCTNDYRRMQKYIAGLKVGTVNIWEVPGYRIEMSPFGGIKDSGNGYKEGVIEAMKSFTNVKTFSLPWP
# B2: enzyme (Thermobifida fusca, UniProt Q47RK4); chain MTDVYILDAVRTPFGRYGGALSGIRPDDLAAHVLRALAERSPGLDPAAVDDVFFGDANGAGEDNRNVARMAALLAGWPTSVPGVTLNRLCGSGMESVIAANRAIAVGDASLAVAGGVESMSRAPWVLPKPAQGFPTGHETLYSTTLGWRMVNPAMPEQWTVSLGESTEQVAATYGISRAEQDAFALRSHERAARAWAEGVFDAEITQIPGAELERDESIRETSAEKLAALKPAFRPDGTITAGNASPLNDGAAALLIGDAAAAERVGREPLARIVSRGVAAVDPDVFGIGPVQAAEIALRRAGIGWDDLSVVELNEAFAAQSLACLKLWPDLDPEIVNPNGGAIAIGHPLGASGARIVGTLAHELHRRGGGWGLAAICIGVGQGLAVVLHR
# B3: CoA persulfide reductase CDR-RHD (Enterococcus faecalis, UniProt A0ACD6TF65); chain MKIVIIGGVAGGMSAATRLRRLMEDAEIVVMEKGPFVSFANCGLPYYVSGEIAEREQLLVQTPEALKARFNLDVRPHHEVVAIDPIEKVITVKHETEILTEHYDKLILSPGAKPFVPPITGLAEAKNVFSLRNVPDLDQIMTALTPETKRAVVIGAGFIGLEMAENLQKRGLEVTLVEKAPHVLPPLDEEMAAFVKAELSKNNVQVITGQSAVAFEEEGQVIRLEDGQTLASDLTILSVGVQPENTLAVEAGVATGLRGGIVVDEHYQTNQPDIYAVGDAIVVKQQITQEDALISLASPANRQGRQVADVIAGLERKNQGSIGTAIVRVFDLTAASTGLSERAAKAAGLTTAVVHISGKDHAGYYPGATDLQLKLVFHPTTGEIYGAQGIGAKGVDKRIDILATAIKGQLTIFDLPELEFTYAPPFGSAKDPVNMLGYAAMNLVEGLSENVQWYELSNELAKGAVLLDVRNPAERANGQFKNAVSIPLNELRERLEELDKSTEYIVSCHSGLRSYIAERMLKQAGISAKNLDGAFALYRMVKPEELENV
# B4: PGDH2 (Oryza sativa, UniProt B7FAD2); chain VTLGAGTDGALWPKPAVLVAEKLSEAGLAVLRGFADVECAYGMSPAELLAKVAQFDALIVRSGTKVTREVLEAGRGRLRVVGRAGVGIDNVDLQAATEAGCLVVNAPTANTVAAAEHGIALLASMARNVSQADAALKAGKWQRTKYVGVSLVGKTLAVMGFGKVGSEVARRAKGLGMHVIAHDPYAPADRARAIGAELVSFDEAIGRADFISLHMPLTPATSKVFNDESFSRMKNGVRIINVARGGVIDEDALVRALDSGKVAQAALDVFTEEPPAKDSKLVLHENVTVTPHLGASTVEAQEGVAIEIAEAVVGALRGELAATAVNAPMVPAEVMSELAPYVSLAEKLGKLAVQLVAGESGGIKGVKVVYTTARGPDDLDTRLLRAMVTKGIVEPVSSTFVNLVNADYTAKQRGLRITEERVSHESPAAEAPLESIQVRLSHVQSKFAGAISDGGDIVLEGRVKYGVPHLTVVGPYEVDVSLEGNLILCRQIDQPGMIGKVGNILGQTNVNISFMSVGRTFRGKQAIMAIGVDEEPDKETLEHIGHIPAIEEFVFLEL
# B5: UGT1A9 (Homo sapiens, UniProt O60656); chain GKLLVVPMDGSHWFTMRSVVEKLILRGHEVVVVMPEVSWQLGRSLNCTVKTYSTSYTLEDLDREFKAFAHAQWKAQVRSIYSLLMGSYNDIFDLFFSNCRSLFKDKKLVEYLKESSFDAVFLDPFDNCGLIVAKYFSLPSVVFARGILCHYLEEGAQCPAPLSYVPRILLGFSDAMTFKERVRNHIMHLEEHLLCHRFFKNALEIASEILQTPVTEYDLYSHTSIWLLRTDFVLDYPKPVMPNMIFIGGINCHQGKPLPMEFEAYINASGEHGIVVFSLGSMVSEIPEKKAMAIADALGKIPQTVLWRYTGTRPSNLANNTILVKWLPQNDLLGHPMTRAFITHAGSHGVYESICNGVPMVMMPLFGDQMDNAKRMETKGAGVTLNVLEMTSEDLENALKAVINDKSYKENIMRLSSLHKDRPVEPLDLAVFWVEFVMRHKGAPHLRPAAHDLTWYQYHSLDVIGFLLAVVLTVAFITFKCCAYGYRKCLGKKGRVKKAHKSKTH
# B6: speck S217A (Drosophila melanogaster, UniProt Q94521); chain MEDALTVSGKPAACPVDQDCPYTIELIQPEDGEAVIAMLKTFFFKDEPLNTFLDLGECKELEKYSLKPLPDNCSYKAVNKKGEIIGVFLNGLMRRPSPDDVPEKAADSCEHPKFKKILSLMDHVEEQFNIFDVYPDEELILDGKILSVDTNYRGLGIAGRLTERAYEYMRENGINVYHVLCASHYSARVMEKLGFHEVFRMQFADYKPQGEVVFKPAAPHVGIQVMAKEVGPAKAAQTKL
# B7: sacB Y196F/Y247F (Priestia megaterium, UniProt D5DC07); chain KGNDSKDFNNSYGISHITRDNMVKIPQQQNSDQFKVPAFDESTIKNIASAKGKNASGNTIDLDVWDSWPLQNADGTVATYHGYQIVFALAGDPKDSNDTSVYLFYKKAGDKSIDSWKNAGRVFKDSDKFVPNDPHLKNQTQEWSGSGTLTKDGKVRLFYTDYSGKQFGKQTLTTAQVNMSQPNDNTLKVDGVEDYKSIFDGDGKIYQTVQQFIDEGGFDTGDNHTLRDPHYIEDNGHKYLVFEANTGTEDGYQGEDSLYNRAYYGGNNPFFQSEKKKLLEGSNKEKASLANGALGIIELNDDYTLKKVMKPLITSNTVTDEIERANIFKKDGKWYLFTDSRGSKMTIDGIGQDDVYMLGYVSNTLTGKYKPLNDTGLVLHMDLDPNDKTFTYSHFAVPQTKGDNVVITSYMTNRGFYEDNHSTFAPSFLVNIDGSKTSVVKDRVLEQGQLTVDED
# B8: protein (UniProt A0A4Y6I1F8); chain MGSEVVSKKHEFGALEVEGIDFRASVAALGSTKKLVLGGAGFRGLEINGNLVKFTAIGIYVEEAIIPHLSPKLGGKTVEELCANELLFEEVLSAPFDKLIRVVFLLPLTGPQYSEKVVERIGLLPNPGLKEESIKQFLEIFKAENFPPRTSLVCSFTEDGLKIAFMKGPDFPEESDAVIEDKYFARAFLATIIAKDGVSPMAKLSFAERVSKYL
# B9: hdhb (Clostridium sardiniense, UniProt G9FRD6); chain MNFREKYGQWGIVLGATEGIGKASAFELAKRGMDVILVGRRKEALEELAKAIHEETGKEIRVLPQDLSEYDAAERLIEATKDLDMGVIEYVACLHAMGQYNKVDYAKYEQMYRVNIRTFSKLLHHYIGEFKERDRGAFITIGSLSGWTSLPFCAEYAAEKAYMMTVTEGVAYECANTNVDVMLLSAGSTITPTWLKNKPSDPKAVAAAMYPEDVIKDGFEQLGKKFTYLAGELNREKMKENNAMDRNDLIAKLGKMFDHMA
# B10: protein P94L (Streptomyces coelicolor, UniProt P16544); chain MATQDSEVALVTGATSGIGLEIARRLGKEGLRVFVCARGEEGLRTTLKELREAGVEADGRTCDVRSVPEIEALVAAVVERYGPVDVLVNNAGRLGGGATAELADELWLDVVETNLTGVFRVTKQVLKAGGMLERGTGRIVNIASTGGKQGVVHAAPYSASKHGVVGFTKALGLELARTGITVNAVCPGFVETPMAASVREHYSDIWEVSTEEAFDRITARVPIGRYVQPSEVAEMVAYLIGPGAAAVTAQALNVCGGLGNY
# B11: enzyme (Mortierella alpina, UniProt U5Y6A8); chain MAPPHVVDEQVRRRIVVEDEIQSKKQFERNYVPMDFTIKEIRDAIPAHLFIRDTTKSILHVVKDLVTIAIVFYCATFIETLPSLALRVPAWITYWIIQGTVMVGPWILAHECGHGAFSDSKTINTIFGWVLHSALLVPYQAWAMSHSKHHKGTGSMSKDVVFIPATRSYKGLPPLEKPAAEEEVLEQEHHHHEESIFAETPIYTLGALFFVLTLGWPLYLIMNFSGHEAPHWVNHFQTVAPLYEPHQRKNIFYSNCGIVAMGSILTYLSMVFSPLTVFMYYGIPYLGVNAWIVCITYLQHTDPKVPHFRDNEWNFQRGAACTIDRSFGTIVNHLHHHIGDSHQCHHMFSQMPFYNAVEATKHLKAKLGKYYIFDDTPIAKALYRNWRECKFVEDEGDVVFYKH
# Chain of UniProt P00433 (whole entry, looked up): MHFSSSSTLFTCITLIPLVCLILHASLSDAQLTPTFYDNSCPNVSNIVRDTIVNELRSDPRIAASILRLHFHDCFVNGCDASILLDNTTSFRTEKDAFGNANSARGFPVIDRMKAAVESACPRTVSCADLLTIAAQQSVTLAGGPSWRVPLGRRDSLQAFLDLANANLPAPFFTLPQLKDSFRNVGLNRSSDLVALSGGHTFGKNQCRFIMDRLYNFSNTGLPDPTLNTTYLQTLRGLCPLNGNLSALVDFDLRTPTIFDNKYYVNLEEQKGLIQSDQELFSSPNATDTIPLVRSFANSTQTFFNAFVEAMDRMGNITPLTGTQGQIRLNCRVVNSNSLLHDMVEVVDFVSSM
# Chain of UniProt P27306 (whole entry, looked up): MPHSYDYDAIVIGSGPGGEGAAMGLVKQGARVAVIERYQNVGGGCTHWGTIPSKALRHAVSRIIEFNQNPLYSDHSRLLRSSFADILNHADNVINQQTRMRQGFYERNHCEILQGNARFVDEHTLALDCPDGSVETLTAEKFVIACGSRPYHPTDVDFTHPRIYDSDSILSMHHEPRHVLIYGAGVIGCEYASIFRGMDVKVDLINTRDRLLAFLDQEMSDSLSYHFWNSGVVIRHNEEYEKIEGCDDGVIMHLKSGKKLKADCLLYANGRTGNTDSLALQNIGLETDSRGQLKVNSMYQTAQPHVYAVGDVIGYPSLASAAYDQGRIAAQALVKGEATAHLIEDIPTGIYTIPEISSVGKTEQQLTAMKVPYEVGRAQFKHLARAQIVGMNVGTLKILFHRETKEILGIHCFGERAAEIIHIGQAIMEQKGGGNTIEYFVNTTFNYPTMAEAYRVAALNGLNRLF
# Chain of UniProt Q51422 (whole entry, looked up): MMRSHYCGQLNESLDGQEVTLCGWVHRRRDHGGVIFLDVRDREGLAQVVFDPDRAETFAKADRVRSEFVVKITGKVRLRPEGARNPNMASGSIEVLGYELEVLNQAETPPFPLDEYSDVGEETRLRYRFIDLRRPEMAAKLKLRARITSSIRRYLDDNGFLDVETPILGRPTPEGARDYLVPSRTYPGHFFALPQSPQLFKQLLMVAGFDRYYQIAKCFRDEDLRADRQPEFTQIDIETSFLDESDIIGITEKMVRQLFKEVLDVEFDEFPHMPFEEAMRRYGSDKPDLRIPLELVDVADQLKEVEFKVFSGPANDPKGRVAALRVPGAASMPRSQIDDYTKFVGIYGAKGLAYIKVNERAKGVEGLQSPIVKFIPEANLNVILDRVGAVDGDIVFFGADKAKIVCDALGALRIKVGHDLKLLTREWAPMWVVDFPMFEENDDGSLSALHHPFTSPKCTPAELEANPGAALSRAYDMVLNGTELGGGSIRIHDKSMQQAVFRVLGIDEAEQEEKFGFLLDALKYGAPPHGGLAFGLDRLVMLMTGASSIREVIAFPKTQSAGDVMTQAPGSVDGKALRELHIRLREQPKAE
# Chain of UniProt P0AFG3 (whole entry, looked up): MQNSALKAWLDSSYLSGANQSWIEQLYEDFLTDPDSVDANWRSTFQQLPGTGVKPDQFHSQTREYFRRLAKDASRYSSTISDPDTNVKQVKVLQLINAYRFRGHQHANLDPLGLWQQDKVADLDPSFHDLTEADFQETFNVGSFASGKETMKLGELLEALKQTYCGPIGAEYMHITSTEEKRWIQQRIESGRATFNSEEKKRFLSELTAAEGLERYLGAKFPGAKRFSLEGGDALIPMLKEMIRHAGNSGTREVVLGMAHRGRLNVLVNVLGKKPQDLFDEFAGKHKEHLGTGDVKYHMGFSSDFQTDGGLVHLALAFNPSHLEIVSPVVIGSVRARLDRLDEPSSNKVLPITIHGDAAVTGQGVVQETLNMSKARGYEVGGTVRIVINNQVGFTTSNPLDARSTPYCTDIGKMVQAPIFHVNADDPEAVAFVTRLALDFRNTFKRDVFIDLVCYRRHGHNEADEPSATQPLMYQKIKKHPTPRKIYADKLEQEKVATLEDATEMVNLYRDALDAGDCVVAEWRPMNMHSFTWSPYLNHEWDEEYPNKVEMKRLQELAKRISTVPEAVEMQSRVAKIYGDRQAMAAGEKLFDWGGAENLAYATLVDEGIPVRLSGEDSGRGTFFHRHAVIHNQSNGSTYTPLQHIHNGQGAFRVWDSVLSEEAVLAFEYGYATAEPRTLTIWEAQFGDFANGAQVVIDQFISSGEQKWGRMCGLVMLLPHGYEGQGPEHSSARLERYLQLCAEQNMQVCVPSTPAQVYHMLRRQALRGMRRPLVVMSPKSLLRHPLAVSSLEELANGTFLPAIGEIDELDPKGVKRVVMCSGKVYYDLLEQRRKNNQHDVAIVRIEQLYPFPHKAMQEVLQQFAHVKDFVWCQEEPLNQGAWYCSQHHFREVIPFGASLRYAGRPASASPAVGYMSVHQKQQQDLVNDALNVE
# Chain of UniProt Q11201 (whole entry, looked up): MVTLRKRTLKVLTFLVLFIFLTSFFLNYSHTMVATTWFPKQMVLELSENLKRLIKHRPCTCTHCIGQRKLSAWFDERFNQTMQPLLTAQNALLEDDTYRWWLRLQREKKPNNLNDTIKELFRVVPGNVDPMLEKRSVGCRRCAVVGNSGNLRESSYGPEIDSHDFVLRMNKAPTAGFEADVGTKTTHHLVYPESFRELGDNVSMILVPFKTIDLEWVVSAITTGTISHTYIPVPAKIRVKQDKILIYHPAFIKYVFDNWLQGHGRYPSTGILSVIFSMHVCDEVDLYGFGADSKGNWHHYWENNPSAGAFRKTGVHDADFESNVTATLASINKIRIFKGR
Molecule,substrate,pH,temperature,notes,added,Km
B1 (enzyme N158A),NC(=O)c1ccc[n+]([C@@H]2O[C@H](COP(=O)(O)OP(=O)(O)OC[C@H]3O[C@@H](n4cnc5c(N)ncnc54)[C@H](O)[C@@H]3O)[C@@H](O)[C@H]2O)c1,pH 7.5,30 °C,cofactor varied,,40 µM
B2 (enzyme),CC(=O)SCCNC(=O)CCNC(=O)[C@H](O)C(C)(C)COP(=O)(O)OP(=O)(O)OC[C@H]1O[C@@H](n2cnc3c(N)ncnc32)[C@H](O)[C@@H]1OP(=O)(O)O,pH 7.4,37 °C,,,2280 µM
"sucA (Escherichia coli, UniProt P0AFG3)",O=C(O)C(=O)CO,pH 6.8,37 °C,,,720 µM
"PRXC1A (Armoracia rusticana, UniProt P00433)",CCn1c(=NN=c2sc3cc(S(=O)(=O)O)ccc3n2CC)sc2cc(S(=O)(=O)O)ccc21,,,apparent,,412 µM
B3,CC(C)(COP(=O)(O)OP(=O)(O)OC[C@H]1O[C@@H](n2cnc3c(N)ncnc32)[C@H](O)[C@@H]1OP(=O)(O)O)[C@@H](O)C(=O)NCCC(=O)NCCSS,pH 8,25 °C,NaCl 200 mM,"FAD 100 nM, NADH 100 µM",111 µM
B4 (PGDH2),O=C(O)[C@H](O)COP(=O)(O)O,pH 9,25 °C,"NaCl 0.1 M, apparent",NAD+,1210 µM
B5 (UGT1A9),COc1c(O)cc2oc(-c3ccc(O)c(O)c3)cc(=O)c2c1O,pH 7.4,37 °C,,,1.15 µM
"Aspartyl-tRNA synthetase (Pseudomonas aeruginosa, UniProt Q51422)",N[C@@H](CC(=O)O)C(=O)O,,,,Mg2+,170 µM
B6 (speck S217A),CC(=O)SCCNC(=O)CCNC(=O)[C@H](O)C(C)(C)COP(=O)(O)OP(=O)(O)OC[C@H]1O[C@@H](n2cnc3c(N)ncnc32)[C@H](O)[C@@H]1OP(=O)(O)O,pH 7.2,30 °C,,,360 µM
"ST3GAL1 (Homo sapiens, UniProt Q11201)",CC(=O)N[C@H]1[C@H](O[C@H]2[C@@H](O)[C@@H](CO)O[C@@H](O[C@H]3[C@H](O)[C@@H](O)[C@H](Oc4ccc([N+](=O)[O-])cc4)O[C@@H]3CO)[C@@H]2O)O[C@H](CO)[C@@H](O)[C@@H]1O[C@@H]1O[C@H](CO)[C@H](O)[C@H](O)[C@H]1O,pH 6,,,CMP-Neu5Ac,3230 µM
"sthA (Escherichia coli, UniProt P27306)",NC(=O)c1ccc[n+]([C@@H]2O[C@H](COP(=O)(O)OP(=O)(O)OC[C@H]3O[C@@H](n4cnc5c(N)ncnc54)[C@H](O)[C@@H]3O)[C@@H](O)[C@H]2O)c1,pH 7.5,37 °C,NaCl 150 mM,thio-NADH 200 µM,68 µM
B7 (sacB Y196F/Y247F),OC[C@H]1O[C@@](CO)(O[C@H]2O[C@H](CO)[C@@H](O)[C@H](O)[C@H]2O)[C@@H](O)[C@@H]1O,pH 6.9,,,,16700 µM
B8 (protein),O=C(/C=C/c1ccc(O)cc1)c1ccc(O)cc1O,,,,,54.3 µM
B9 (hdhb),NC(=O)c1ccc[n+]([C@@H]2O[C@H](COP(=O)(O)OP(=O)(O)OC[C@H]3O[C@@H](n4cnc5c(N)ncnc54)[C@H](O)[C@@H]3O)[C@@H](O)[C@H]2O)c1,pH 8,25 °C,cofactor varied,,2620 µM
B10 (protein P94L),O[C@H]1CCCc2ccccc21,pH 7.4,,"phosphate 400 mM, NADPH 250 µM printed","NADP+, reverse reaction",6570 µM
B11 (enzyme),CCCCC/C=C\C/C=C\C/C=C\C/C=C\CCCC(=O)SCCNC(=O)CCNC(=O)[C@H](O)C(C)(C)COP(=O)(O)OP(=O)(O)OC[C@H]1O[C@@H](n2cnc3c(N)ncnc32)[C@H](O)[C@@H]1OP(=O)(O)O,pH 7.5,28 °C,,,157 µM
"Gcs (Leishmania donovani, UniProt Q67BG3)",N[C@@H](CS)C(=O)O,,,apparent,"ATP, L-glutamate, Mg2+",1700 µM
